Results collected from several papers.
Every numbered part comes from another study and shows a few of its results, in no order.

Study 1
Target: Histone acetyltransferase KAT6A, winged helix 2, GST fusion (KAT6A, Homo sapiens, UniProt Q92794, residues 85-181)
Method: protein binding microarray
Form: double-stranded DNA, one strand shown
Matrix: in vitro
Tested at: not given
Setting: 8-mer, flanks averaged, mean of 2 arrays, mostly near background
Reference: not given
Direction: higher = stronger binding
Target sequence (chain): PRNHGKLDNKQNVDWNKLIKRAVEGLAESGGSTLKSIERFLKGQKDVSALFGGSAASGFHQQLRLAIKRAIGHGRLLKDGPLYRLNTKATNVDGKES
| Sequence | E-score |
| --- | --- |
| GAGCCAAA | -0.0666 |
| AAAATTCC | -0.0668 |
| ACAATTCC | -0.0204 |
| CAGGCTCC | 0.0395 |
| ATTAACCA | -0.14 |

Study 2
Target: Sal-like protein 4, full length isoform B (SALL4, Homo sapiens, UniProt Q9UJQ4-2, residues 1-616)
Method: universal PBM
Form: double-stranded DNA, one strand shown
Matrix: in vitro
Tested at: not given
Setting: 8-mer, flanks averaged, mean of replicates
Direction: higher = stronger binding
Construct (chain): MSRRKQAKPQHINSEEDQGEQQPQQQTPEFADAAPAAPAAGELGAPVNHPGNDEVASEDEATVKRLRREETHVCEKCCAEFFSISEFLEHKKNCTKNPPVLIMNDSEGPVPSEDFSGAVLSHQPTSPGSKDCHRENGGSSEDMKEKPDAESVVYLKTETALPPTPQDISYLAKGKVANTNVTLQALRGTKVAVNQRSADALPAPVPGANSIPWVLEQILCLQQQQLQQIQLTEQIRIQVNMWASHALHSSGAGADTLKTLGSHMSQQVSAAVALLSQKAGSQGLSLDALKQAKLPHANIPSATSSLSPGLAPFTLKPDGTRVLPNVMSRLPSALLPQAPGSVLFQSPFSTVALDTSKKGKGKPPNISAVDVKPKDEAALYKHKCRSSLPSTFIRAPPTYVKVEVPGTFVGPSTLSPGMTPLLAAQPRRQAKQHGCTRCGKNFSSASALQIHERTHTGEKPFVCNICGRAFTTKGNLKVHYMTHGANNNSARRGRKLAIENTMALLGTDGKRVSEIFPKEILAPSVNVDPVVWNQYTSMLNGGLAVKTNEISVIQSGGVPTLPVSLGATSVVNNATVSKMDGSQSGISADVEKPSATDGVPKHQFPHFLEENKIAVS
| Sequence | E-score |
| --- | --- |
| CCCCACGG | -0.312 |
| ATCGAGGA | -0.00501 |
| GTACCAAA | 0.0684 |
| AGACCCAG | -0.274 |
| ATCTTGGC | 0.0464 |
| ACGTCCAT | 0.0529 |
| CGATGCAG | -0.243 |

Study 3
Target: Protein max, full length (MAX, Homo sapiens, UniProt P61244-2, residues 1-151)
Method: protein-binding microarray
Form: double-stranded DNA, one strand shown
Matrix: in vitro
Tested at: not given
Setting: k-mer, scored over probes, only values ≥0.25
Direction: higher = stronger binding
| Sequence | E-score |
| --- | --- |
| CCGTCACG | 0.299 |
| CGTGATTA | 0.398 |
| CGTGAACA | 0.281 |
| ACCTCGTG | 0.476 |
| ATGCGTAG | 0.273 |

Other studies, line by line
| Substance | target | assay | test system | conditions | how to read | quantity | result |
| --- | --- | --- | --- | --- | --- | --- | --- |
| PhoQ, residues 284 288 289 292 302 303 TVTVVA | PhoP, residues 12 14 15 18 19 NHFIF (Escherichia coli, UniProt P23836) | Sort-seq, item: YFP reporter | E. coli | PhoQ-PhoP variant library, added: 10 µM Mg2+ | reference: high Mg2+ state, higher = stronger signaling | fold induction | 3.09 |

Excerpt of the above (study 2):
| Sequence | E-score |
| --- | --- |
| CGATGCAG | -0.243 |
| GTACCAAA | 0.0684 |
| CCCCACGG | -0.312 |
